{"data": "Assay results collected from several papers", "note": "Every numbered part comes from another study and shows a few of its results, in no order."}
{"data": "Block 1", "target": "Histone acetyltransferase KAT6A, both winged helices, GST fusion (KAT6A, Homo sapiens, UniProt Q92794, residues 1-181)", "method": "protein binding microarray", "molecule type": "double-stranded DNA, one strand shown", "sample": "in vitro", "tested at": "not given", "setting": "8-mer, flanks averaged, mean of 2 arrays, mostly near background", "relative to": "not given", "reading": "higher = stronger binding", "Target sequence (chain)": "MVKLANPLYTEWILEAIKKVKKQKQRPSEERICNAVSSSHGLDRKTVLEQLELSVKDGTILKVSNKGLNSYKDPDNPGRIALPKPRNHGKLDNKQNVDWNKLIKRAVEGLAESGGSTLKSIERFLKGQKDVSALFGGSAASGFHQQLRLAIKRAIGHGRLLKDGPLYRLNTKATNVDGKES"}
{"Sequence": "CGCACGCA", "E-score": 0.208}
{"Sequence": "GATCCGGA", "E-score": 0.0767}
{"Sequence": "GGGGCAAC", "E-score": -0.0962}
{"Sequence": "AGTTGACA", "E-score": -0.136}
{"Sequence": "GTGATTCA", "E-score": -0.14}
{"data": "Block 2", "target": "Interferon regulatory factor 7, full length, phosphomimetic (IRF7, Homo sapiens, UniProt Q92985, residues 1-503, S101K/S471D/S472D/S475D/S476D/S477D/S483D/S484D/S487D)", "method": "protein-binding microarray", "molecule type": "double-stranded DNA, one strand shown", "sample": "in vitro", "tested at": "250 nM", "setting": "60-bp whole probe", "together with": "salmon DNA 0.4 mg/ml", "relative to": "random background probes", "reading": "higher = stronger binding", "chain of UniProt Q92985 (whole entry, unmodified, looked up)": "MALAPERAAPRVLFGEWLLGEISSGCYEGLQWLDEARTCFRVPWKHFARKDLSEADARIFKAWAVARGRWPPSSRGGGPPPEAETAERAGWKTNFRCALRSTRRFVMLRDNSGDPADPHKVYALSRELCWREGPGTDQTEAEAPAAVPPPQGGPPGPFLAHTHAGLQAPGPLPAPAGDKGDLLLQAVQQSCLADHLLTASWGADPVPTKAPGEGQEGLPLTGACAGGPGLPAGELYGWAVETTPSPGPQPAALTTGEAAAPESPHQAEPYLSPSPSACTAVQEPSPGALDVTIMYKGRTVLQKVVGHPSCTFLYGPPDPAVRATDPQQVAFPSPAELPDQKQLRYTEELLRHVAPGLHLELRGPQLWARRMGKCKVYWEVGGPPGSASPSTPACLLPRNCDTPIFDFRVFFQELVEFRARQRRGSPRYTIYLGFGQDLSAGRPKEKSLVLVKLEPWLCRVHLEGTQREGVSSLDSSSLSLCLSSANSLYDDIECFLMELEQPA"}
{"Sequence": "GCCTAGCACTTAGGGTTCGGGTTTCGGTTAGTGCTAGTCTTGATTCGCTTGACGCTGCTG", "log fluorescence": "7.55 z-score"}
{"Sequence": "GCCTAGCACGACTGTATCGGGTTTCGGGACGTGCTAGTCTTGATTCGCTTGACGCTGCTG", "log fluorescence": "2.25 z-score"}
{"Sequence": "GCCTAGCACTTAGGTCTCGGACAGGGTTAGTGCTAGGTCTTGATTCGCTTGACGCTGCTG", "log fluorescence": "0.104 z-score"}
{"Sequence": "GCCTAGCACTTAGGTCTCCTGCTGCTTTAGTGCTAGGTCTTGATTCGCTTGACGCTGCTG", "log fluorescence": "-0.447 z-score"}
{"data": "Single results of other studies", "SP1": "Transcription factor Sp1 (SP1, Homo sapiens, UniProt P08047, residues 1-785, full length assumed)", "FOXA2 forkhead domain": "Hepatocyte nuclear factor 3-beta, forkhead domain (FOXA2, Homo sapiens, UniProt Q9Y261, residues 142-269)", "chain of UniProt Q9Y261 (142-269, looked up)": "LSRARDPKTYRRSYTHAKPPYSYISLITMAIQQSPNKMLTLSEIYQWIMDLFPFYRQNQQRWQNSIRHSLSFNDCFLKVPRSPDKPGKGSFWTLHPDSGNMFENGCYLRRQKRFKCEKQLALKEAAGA", "chain of UniProt P08047 (whole entry, looked up)": "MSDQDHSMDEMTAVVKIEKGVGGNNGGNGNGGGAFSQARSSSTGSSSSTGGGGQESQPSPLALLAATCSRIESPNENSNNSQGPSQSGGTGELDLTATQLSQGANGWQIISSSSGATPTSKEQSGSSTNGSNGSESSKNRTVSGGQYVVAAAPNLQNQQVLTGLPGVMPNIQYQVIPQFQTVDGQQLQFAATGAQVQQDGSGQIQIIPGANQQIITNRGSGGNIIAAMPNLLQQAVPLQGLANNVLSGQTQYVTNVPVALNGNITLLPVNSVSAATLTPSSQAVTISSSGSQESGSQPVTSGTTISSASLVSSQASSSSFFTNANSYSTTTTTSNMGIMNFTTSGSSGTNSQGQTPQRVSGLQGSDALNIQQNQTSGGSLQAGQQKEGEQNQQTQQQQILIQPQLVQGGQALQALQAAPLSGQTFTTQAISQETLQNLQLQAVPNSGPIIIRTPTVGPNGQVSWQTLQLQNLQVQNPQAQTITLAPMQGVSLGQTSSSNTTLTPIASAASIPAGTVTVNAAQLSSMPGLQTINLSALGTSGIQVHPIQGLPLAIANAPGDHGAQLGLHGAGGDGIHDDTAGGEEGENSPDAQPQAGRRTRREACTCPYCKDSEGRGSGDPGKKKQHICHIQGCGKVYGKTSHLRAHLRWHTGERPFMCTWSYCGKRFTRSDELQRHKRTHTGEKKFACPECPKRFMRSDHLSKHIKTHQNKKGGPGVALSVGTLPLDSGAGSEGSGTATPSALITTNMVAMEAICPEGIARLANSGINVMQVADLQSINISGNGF"}
{"Substance": "ACGTGTAT", "target": "SP1", "assay": "protein-binding microarray", "system": "double-stranded DNA, one strand shown, in vitro", "setting": "not given, k-mer, scored over probes, only values ≥0.25", "how to read": "higher = stronger binding", "quantity": "E-score", "value": 0.292}
{"Substance": "PhoQ, residues 284 288 289 292 302 303 AGGCYF", "target": "PhoP, residues 12 14 15 18 19 TPWLV (Escherichia coli, UniProt P23836)", "assay": "Sort-seq, measured: YFP reporter", "system": "E. coli", "setting": "PhoQ-PhoP variant library, together with: 10 µM Mg2+", "how to read": "relative to: high Mg2+ state, higher = stronger signaling", "quantity": "fold induction", "value": 2.99}
{"Substance": "CATAAGAC", "target": "FOXA2 forkhead domain", "assay": "protein-binding microarray", "system": "double-stranded DNA, one strand shown, in vitro", "setting": "not given, k-mer, scored over probes, only values ≥0.25", "how to read": "higher = stronger binding", "quantity": "E-score", "value": 0.302}
{"Substance": "GTTACATA", "target": "FOXA2 forkhead domain", "assay": "protein-binding microarray", "system": "double-stranded DNA, one strand shown, in vitro", "setting": "not given, k-mer, scored over probes, only values ≥0.25", "how to read": "higher = stronger binding", "quantity": "E-score", "value": 0.327}
{"Substance": "TTATATAA", "target": "SP1", "assay": "protein-binding microarray", "system": "double-stranded DNA, one strand shown, in vitro", "setting": "not given, k-mer, scored over probes, only values ≥0.25", "how to read": "higher = stronger binding", "quantity": "E-score", "value": 0.276}
{"note": "Excerpt of the above (single results of other studies):"}
{"Substance": "GTTACATA", "target": "FOXA2 forkhead domain", "assay": "protein-binding microarray", "system": "double-stranded DNA, one strand shown, in vitro", "setting": "not given, k-mer, scored over probes, only values ≥0.25", "how to read": "higher = stronger binding", "quantity": "E-score", "value": 0.327}
{"Substance": "TTATATAA", "target": "SP1", "assay": "protein-binding microarray", "system": "double-stranded DNA, one strand shown, in vitro", "setting": "not given, k-mer, scored over probes, only values ≥0.25", "how to read": "higher = stronger binding", "quantity": "E-score", "value": 0.276}
